Measurements gathered from unrelated publications.
Numbered parts are unrelated; each lists some results of a single study. Substitutions count along the parent as printed.

Block 1
Target: inorganic phosphate, free oxyanion
Method: microfluidic competitive inhibition
Medium: in vitro, cell-free expressed
Concentration: not given
Setting: derived from inhibition constants, unchanged parent 615000 nM
Reading: lower = stronger binding
Starting sequence: PafA, mature enzyme, eGFP fusion (Elizabethkingia meningoseptica, UniProt Q9KJX5); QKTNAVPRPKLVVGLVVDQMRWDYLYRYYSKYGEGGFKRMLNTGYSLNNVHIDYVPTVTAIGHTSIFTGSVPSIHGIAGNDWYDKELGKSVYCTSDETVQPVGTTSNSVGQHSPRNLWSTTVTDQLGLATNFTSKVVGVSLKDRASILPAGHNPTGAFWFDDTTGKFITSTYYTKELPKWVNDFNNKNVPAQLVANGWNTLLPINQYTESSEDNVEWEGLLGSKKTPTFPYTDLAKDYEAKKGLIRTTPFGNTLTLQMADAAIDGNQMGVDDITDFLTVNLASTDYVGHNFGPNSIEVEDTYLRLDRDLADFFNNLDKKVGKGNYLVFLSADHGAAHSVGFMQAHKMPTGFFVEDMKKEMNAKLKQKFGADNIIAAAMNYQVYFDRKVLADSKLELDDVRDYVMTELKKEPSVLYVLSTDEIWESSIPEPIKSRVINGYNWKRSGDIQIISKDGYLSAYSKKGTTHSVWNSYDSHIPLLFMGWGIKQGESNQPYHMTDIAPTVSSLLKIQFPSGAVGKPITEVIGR
Under “phosphate dissociation constant”, `N491V` is recorded as 607 µM.
For `D498G`, “phosphate dissociation constant” read 379 µM.
`M481G` — result for “phosphate dissociation constant”: 587 µM.
`D162G` — result for “phosphate dissociation constant”: 1070 µM.
For `D453V`, “phosphate dissociation constant” read 314 µM.
For `K461G`, “phosphate dissociation constant” read 602 µM.
For `A240G`, “phosphate dissociation constant” read 575 µM.
Under “phosphate dissociation constant”, `L234G` is recorded as 433 µM.
`Y26G`: “phosphate dissociation constant” 343 µM.
`V416G`: “phosphate dissociation constant” 474 µM.
Under “phosphate dissociation constant”, `R307V` is recorded as 660 µM.
For `K38V`, “phosphate dissociation constant” read 610 µM.
For `S283G`, “phosphate dissociation constant” read 750 µM.
For `D308G`, “phosphate dissociation constant” read 595 µM.
Under “phosphate dissociation constant”, `G369V` is recorded as 646 µM.
Under “phosphate dissociation constant”, `L41G` is recorded as 466 µM.
`T255V`: “phosphate dissociation constant” 612 µM.
`S513G` — result for “phosphate dissociation constant”: 361 µM.

Block 2
Target: Muscarinic acetylcholine receptor M3 (CHRM3, Homo sapiens, UniProt P20309)
UniProt P20309, sequence (whole entry, looked up): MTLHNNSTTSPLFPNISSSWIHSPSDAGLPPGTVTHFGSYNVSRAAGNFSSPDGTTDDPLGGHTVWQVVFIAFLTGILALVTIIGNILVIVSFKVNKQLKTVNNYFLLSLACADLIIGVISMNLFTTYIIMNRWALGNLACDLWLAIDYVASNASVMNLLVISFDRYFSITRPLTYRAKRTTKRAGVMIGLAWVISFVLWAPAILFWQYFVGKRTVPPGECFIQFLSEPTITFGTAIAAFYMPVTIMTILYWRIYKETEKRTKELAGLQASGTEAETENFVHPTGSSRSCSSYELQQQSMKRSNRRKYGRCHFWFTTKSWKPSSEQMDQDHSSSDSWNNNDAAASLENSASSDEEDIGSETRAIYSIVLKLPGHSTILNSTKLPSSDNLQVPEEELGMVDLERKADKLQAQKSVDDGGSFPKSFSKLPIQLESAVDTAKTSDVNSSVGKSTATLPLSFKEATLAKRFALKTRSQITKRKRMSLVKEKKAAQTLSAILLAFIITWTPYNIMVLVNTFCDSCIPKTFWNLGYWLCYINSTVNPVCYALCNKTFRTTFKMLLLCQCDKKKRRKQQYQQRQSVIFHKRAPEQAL
Observed: ligand displacement
Concentration: 10 µM
For `COc1cc(-c2cn(C3CCc4c(F)cccc4N(CC(F)(F)F)C3=O)nn2)ccc1-n1cnc(C)c1` (centres unmarked), the inhibition was -4.42%.
`CN(C)CC#Cc1ccc(OCCCc2sc(N3CCc4cccc(C(=O)Nc5nc6ccccc6s5)c4C3)nc2C(=O)O)c(F)c1` gave an inhibition of -10.7%.
`CN1CCN(c2ccnc(NCCc3ccccc3)n2)CC1` gave an inhibition of -3.28%.
The inhibition of `Cc1cc(Nc2nccc(C)n2)cc(-c2cnc([C@@]3(O)CC[C@H](C(=O)O)C(C)(C)C3)s2)c1` is reported as 17.4%.
With `COc1cc(C(=O)O)ncc1C#Cc1ccccc1NS(=O)(=O)c1cccc2c(N(C)C)ccnc12` the inhibition was -24.4%.
The inhibition of `CNC(=O)Nc1ccc2c(c1)CC[C@]21OC(=O)N(CC(=O)N(Cc2ccc(F)cc2)[C@@H](C)C(F)(F)F)C1=O` is reported as 9.06%.
The inhibition of `CNC(=N)NCCC[C@H](NC(=O)[C@H](CC(C)C)NC(=O)NNC(=O)[C@H](Cc1ccccc1)NC(=O)[C@H](CO)NC(=O)[C@H](CC(N)=O)NC(=O)[C@@H](Cc1ccncc1)NC(=O)[C@H](N)Cc1ccc(O)cc1)C(=O)N[C@@H](Cc1ccccc1)C(N)=O` is reported as 10.6%.

Block 3
Target: CRIPT, C-terminal peptide
Method: DHFR complementation, deep sequencing
Medium: yeast
Setting: single substitutions, model-inferred values
Reference: wild type
Reading: higher = weaker binding
Starting sequence: ERBIN, PDZ domain 1 (human); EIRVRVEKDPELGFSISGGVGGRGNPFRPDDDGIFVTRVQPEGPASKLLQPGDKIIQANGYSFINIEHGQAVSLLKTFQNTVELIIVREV; partner TKNYKQTSV
Under “binding free energy change”, `V4F` is recorded as 0.0198 kcal/mol.
For `G24H`, “binding free energy change” read 0.689 kcal/mol.
`E1W` — result for “binding free energy change”: 0.121 kcal/mol.
Under “binding free energy change”, `K54Y` is recorded as 0.842 kcal/mol.
`V87P`: “binding free energy change” 1.35 kcal/mol.
`P26F` — result for “binding free energy change”: 0.554 kcal/mol.
`K47H` — result for “binding free energy change”: 0.135 kcal/mol.
`G18T`: “binding free energy change” 1.63 kcal/mol.

Block 4
Target: CCND1, cyclin fold, Cln2 fusion (human)
Method: yeast growth competition, sequencing
Medium: yeast
Setting: weak parent motif
Reference: not given
Reading: higher = stronger binding
Starting sequence: viral docking peptide; KKAKRRLFTISDS; partner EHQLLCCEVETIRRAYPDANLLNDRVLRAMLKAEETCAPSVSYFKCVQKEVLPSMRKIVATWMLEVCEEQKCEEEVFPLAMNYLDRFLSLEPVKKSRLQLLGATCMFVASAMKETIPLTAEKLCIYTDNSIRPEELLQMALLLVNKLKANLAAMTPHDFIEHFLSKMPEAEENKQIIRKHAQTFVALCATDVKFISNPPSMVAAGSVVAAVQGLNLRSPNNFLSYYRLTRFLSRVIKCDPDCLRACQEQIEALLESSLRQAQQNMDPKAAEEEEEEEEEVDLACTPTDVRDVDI
Under “normalised enrichment score”, `R5A L7A` is recorded as -0.294.
Under “normalised enrichment score”, `F8L` is recorded as 0.25.
`K1A` — result for “normalised enrichment score”: 0.292.
`T9A` — result for “normalised enrichment score”: 0.395.
Under “normalised enrichment score”, `R6A` is recorded as 1.05.
`R5K`: “normalised enrichment score” 0.169.
Under “normalised enrichment score”, `S13A` is recorded as 0.214.
`I10A` — result for “normalised enrichment score”: 0.213.
